Experimental data collected from several papers.
Compare with care: the assays were run in different laboratories. ± marks the error that the study gave.
DRD2: D(2) dopamine receptor (DRD2, Homo sapiens, UniProt P14416)
UniProt P14416, sequence (whole entry, unmodified, looked up): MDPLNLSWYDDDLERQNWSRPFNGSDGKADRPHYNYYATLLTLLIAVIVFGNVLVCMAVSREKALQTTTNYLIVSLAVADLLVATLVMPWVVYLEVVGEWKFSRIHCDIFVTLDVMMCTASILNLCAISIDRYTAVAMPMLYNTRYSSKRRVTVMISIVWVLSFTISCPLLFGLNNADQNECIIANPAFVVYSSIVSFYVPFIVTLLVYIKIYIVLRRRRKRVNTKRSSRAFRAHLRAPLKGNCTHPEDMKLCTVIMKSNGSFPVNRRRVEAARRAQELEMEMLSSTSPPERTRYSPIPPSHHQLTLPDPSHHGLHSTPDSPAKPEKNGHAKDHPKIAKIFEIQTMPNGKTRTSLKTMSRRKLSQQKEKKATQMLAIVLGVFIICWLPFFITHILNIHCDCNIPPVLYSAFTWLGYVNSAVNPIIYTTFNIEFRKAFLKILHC

Compound	target	assay	test system	setting	measurement	result
COc1cc2c(cc1OC)C(=O)N(CCCCN1CCN(c3ccccc3OC)CC1)C2	DRD2	antagonist	–	–	IC50	3.98 µM
CS(=O)(=O)C1(CNCc2cccc3cccnc23)CC1	DRD2	receptor activation, agonist, Tango β-arrestin	–	–	EC50	> 1 µM
CNC(=O)[C@@]12C[C@@H]1[C@@H](n1cnc3c(NC)nc(C#Cc4cccs4)nc31)[C@H](O)[C@@H]2O	DRD2	radioligand binding (PDSP)	–	–	Ki	> 10 µM
Cc1[nH]c(C)c(S(=O)(=O)Nc2ccc(C3(C)CCO3)c(Cl)c2)c1C(=O)N1CCC(F)(F)C1 (stereo not drawn)	DRD2	–	–	–	IC50	> 100 µM
Cc1cccc(C(=O)NCN2CCN(c3ccccc3C#N)CC2)c1	DRD2 (Homo sapiens, UniProt P14416, F110L/V111M)	binding	COS-7 membranes	mutant receptor, together with: [3H]methylspiperone 0.5 nM	Ki	0.041 ± 0.0044 µM
CCn1c(-c2nc3ccc(C(=O)N4CCCC(N)C4)cc3n2C)cc2ccccc21 (stereo not drawn)	DRD2	antagonist, GTPγS LEADseeker	–	–	IC50	31.6 µM
Cc1[nH]c(C)c(S(=O)(=O)Nc2ccnc3c(C(F)(F)F)cccc23)c1C(=O)N1CCC(F)(F)C1	DRD2	–	–	–	IC50	> 100 µM
CCn1c(-c2nc3cc(C(=O)N4CCC[C@@H](N)C4)cc(OC)c3n2C)cc2cccnc21	DRD2	agonist, GTPγS binding	–	–	EC50	> 100 µM
Cc1[nH]c(C)c(S(=O)(=O)Nc2ccc(C(=O)C3CC3)c(Cl)c2)c1C(=O)N1CCC(F)(F)C1	DRD2	–	–	–	IC50	> 100 µM

Repeated from above:
Compound	target	assay	test system	setting	measurement	result
Cc1cccc(C(=O)NCN2CCN(c3ccccc3C#N)CC2)c1	DRD2 (Homo sapiens, UniProt P14416, F110L/V111M)	binding	COS-7 membranes	mutant receptor, together with: [3H]methylspiperone 0.5 nM	Ki	0.041 ± 0.0044 µM
